Assay results of several laboratories.
Protocols differ between the studies behind these lines.
Method: steady-state kinetics
B1: LYS1 C205S/D319A (Saccharomyces cerevisiae, UniProt P38998); chain MAAVTLHLRAETKPLEARAALTPTTVKKLIAKGFKIYVEDSPQSTFNINEYRQAGAIIVPAGSWKTAPRDRIIIGLKEMPETDTFPLVHEHIQFAHCYKDQAGWQNVLMRFIKGHGTLYDLEFLENDQGRRVAAFGFYAGFAGAALGVRDWAFKQTHSDDEDLPAVSPYPNEKALVKDVTKDYKEALATGARKPTVLIIGALGRSGSGAIDLLHKVGIPDANILKWDIKETSRGGPFDEIPQADIFINCIYLSKPIAPFTNMEKLNNPNRRLRTVVDVSADTTNPHNPIPIYTVATVFNKPTVLVPTTAGPKLSVISIAHLPSLLPREASEFFSHDLLPSLELLPQRKTAPVWVRAKKLFDRHCARVKRSSRL
B2: msrA U16C (Clostridium oremlandii, UniProt A8MI53); chain MDTNQKLSIAVFALGCFWGPDAQFGSIKGVVSTRVGYAGGTTNNPSYYNLGDHSESIEIQYDANVITYGELLNIFWNLHNPVYETTNRQYMSRIFYLDDGQKSEALEMKRQIEAANGEKIYTEIVPLENFYLAEGYHQKYYLQNTTKLYQTLKAIYGGFGNLVRSTLAARMNGYIAGNLSIASLKEEMDLVELPEDQYEKVLSIVEEIK
B3: FMO3 E158K (Homo sapiens, UniProt P31513); chain GKKVAIIGAGVSGLASIRSCLEEGLEPTCFEKSNDIGGLWKFSDHAEEGRASIYKSVFSNSSKEMMCFPDFPFPDDFPNFMHNSKIQEYIIAFAKEKNLLKYIQFKTFVSSVNKHPDFATTGQWDVTTERDGKKESAVFDAVMVCSGHHVYPNLPKKSFPGLNHFKGKCFHSRDYKEPGVFNGKRVLVVGLGNSGCDIATELSRTAEQVMISSRSGSWVMSRVWDNGYPWDMLLVTRFGTFLKNNLPTAISDWLYVKQMNARFKHENYGLMPLNGVLRKEPVFNDELPASILCGIVSVKPNVKEFTETSAIFEDGTIFEGIDCVIFATGYSFAYPFLDESIIKSRNNEIILFKGVFPPLLEKSTIAVIGFVQSLGAAIPTVDLQSRWAAQVIKGTCTLPSMEDMMNDINEKMEKKRKWFGKSETIQTDYIVYMDELSSFIGAKPNIPWLFLTDPKLAMEVYFGPCSPYQFRLVGPGQWPGARNAILTQWDRSLKPMQTRVVGRLQKPCFFFHWLKLFAIPILLIAVFLVLT
B4: TcC (Trypanosoma cruzi, UniProt Q4DGA3); chain MPREYEFAEKILFTEEEIRTRIMEVAKRIADDYKGKGLRPYVNPLVLISVLKGSFMFTADLCRALSDFNVPVRMEFICVSSYGEGVTSSGQVRMLLDTRHSIEGHHVLIVEDIVDTALTLNYLYHMYFTRRPASLKTVVLLDKREGRRVPFSADYVVANIPNAFVIGYGLDYDDTYRELRDIVVLRPEVYAEREAARQKKQRAIGSADTDRDAKREFHSKY
B5: enzyme A178R/D177A/M179S/P184R (Levilactobacillus brevis, UniProt Q03Q85); chain MKVTVVGCTHAGTFAIKQILAEHPDAEVTVYERNDVISFLSCGIALYLGGKVADPQGLFYSSPEELQKLGANVQMNHNVLAIDPDQKTVTVEDLTNHAQTTESYDKLVMTSGSWPIVPKIPGIDSDRVKLCKNWAHAQALIEDAKEAKRITVIGAGYIGAELAEAYSTTGHDVTLIARSARVMRKYFDADFTDVIEQDYRDHGVQLALGETVESFTDSATGLTIKTDKNSYETDLAILCIGFRPNTDLLKGKVDMAPNGAIITDDYMRSSNPDIFAAGDSAAVHYNPTHQNAYIPLATNAVRQGILVGKNLVKPTVKYMGTQSSSGLALYDRTIVSTGLTLAAAKQQGLNAEQVIVEDNYRPEFMPSTEPVLMSLVFDPDTHRILGGALMSKYDVSQSANTLSVCIQNENTIDDLAMVDMLFQPNFDRPFNYLNILAQAAQAKVAQSVNA
B6: enzyme (Leishmania major, UniProt E9AE57); chain MSLCDQCEIGCRRVGIKDIEDASAVNADFHFSAIFQPTDPHHHQTEFAKVEGSEKYVEEVEVFGRQALKVNPEALTILAHRAFSDVHHFFRKDHLEGWRRAIEDPEASDNDRYVATTLLKNACIAAGRVLPSCQDTGTAIVLGKRGELCWTGGEDEKYLSKGIWNAYRYHNLRYSQTAALDMFKECNTGDNLPAQLDLLAVPGSDYEFLFIAKGGGSANKAYLYQETKALLNPKSLRAFIEEKLKTLGTAACPPYHIALVIGGTSAEMTMKTVKLASCRYYDSLPTTGDKYGRAFRDPEWEKIVMEVAQKSGIGAQFGGKYFAHQARVIRLPRHGASCPVGLAVSCSADRQILAHINKSGIYIEQLEQNPAQYLPDIPEVHLSTTSVKVDLKRPIDKVRQQLSQYPVGTRVMLNGTLIVARDIAHAKIKEMMDNGEPLPEYMKTSPIYYAGPAKTPEGYASGSFGPTTAGRMDSYVDLFQSHGGSYITLAKGNRSKQVTDACKKHGGFYLGSIGGPAAILAKDSIKQVTCLAFPELGMEAVWKIEVEDFPAFIVVDDKGNDMYSKTLA
B7: oxdC (Bacillus subtilis, UniProt O34714); chain MKKQNDIPQPIRGDKGATVKIPRNIERDRQNPDMLVPPETDHGTVSNMKFSFSDTHNRLEKGGYAREVTVRELPISENLASVNMRLKPGAIRELHWHKEAEWAYMIYGSARVTIVDEKGRSFIDDVGEGDLWYFPSGLPHSIQALEEGAEFLLVFDDGSFSENSTFQLTDWLAHTPKEVIAANFGVTKEEISNLPGKEKYIFENQLPGSLKDDIVEGPNGEVPYPFTYRLLEQEPIESEGGKVYIADSTNFKVSKTIASALVTVEPGAMRELHWHPNTHEWQYYISGKARMTVFASDGHARTFNYQAGDVGYVPFAMGHYVENIGDEPLVFLEIFKDDHYADVSLNQWLAMLPETFVQAHLDLGKDFTDVLSKEKHPVVKKKCSK
Sequence of UniProt Q9Y2T3 (whole entry, looked up): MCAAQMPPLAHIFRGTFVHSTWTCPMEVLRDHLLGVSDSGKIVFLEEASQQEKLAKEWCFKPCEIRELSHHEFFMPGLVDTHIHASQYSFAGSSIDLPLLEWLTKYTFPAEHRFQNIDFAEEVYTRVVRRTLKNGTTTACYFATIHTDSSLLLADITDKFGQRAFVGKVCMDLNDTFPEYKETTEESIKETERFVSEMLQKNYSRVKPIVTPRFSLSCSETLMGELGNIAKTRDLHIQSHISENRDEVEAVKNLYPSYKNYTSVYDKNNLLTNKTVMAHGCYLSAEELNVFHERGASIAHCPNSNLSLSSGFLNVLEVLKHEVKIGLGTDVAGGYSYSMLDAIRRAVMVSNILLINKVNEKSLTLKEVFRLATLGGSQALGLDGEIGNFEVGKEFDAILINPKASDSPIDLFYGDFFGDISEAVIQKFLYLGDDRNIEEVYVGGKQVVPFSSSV
Sequence of UniProt P07275 (whole entry, looked up): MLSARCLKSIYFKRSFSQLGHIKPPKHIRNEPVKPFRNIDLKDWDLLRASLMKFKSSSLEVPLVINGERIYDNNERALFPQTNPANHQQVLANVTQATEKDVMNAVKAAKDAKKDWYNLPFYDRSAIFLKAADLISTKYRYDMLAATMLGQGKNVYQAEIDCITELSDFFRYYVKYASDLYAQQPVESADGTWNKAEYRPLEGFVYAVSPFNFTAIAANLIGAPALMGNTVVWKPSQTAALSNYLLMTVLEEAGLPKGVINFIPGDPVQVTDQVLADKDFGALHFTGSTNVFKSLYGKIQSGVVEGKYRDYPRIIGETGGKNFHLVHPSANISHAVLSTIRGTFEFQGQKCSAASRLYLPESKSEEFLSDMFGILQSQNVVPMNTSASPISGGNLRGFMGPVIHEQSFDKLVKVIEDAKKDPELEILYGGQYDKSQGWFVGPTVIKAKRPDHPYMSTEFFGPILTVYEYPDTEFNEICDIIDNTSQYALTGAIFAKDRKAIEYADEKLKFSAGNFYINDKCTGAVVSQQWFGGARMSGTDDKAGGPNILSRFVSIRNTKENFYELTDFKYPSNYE
Sequence of UniProt P08253 (whole entry, looked up): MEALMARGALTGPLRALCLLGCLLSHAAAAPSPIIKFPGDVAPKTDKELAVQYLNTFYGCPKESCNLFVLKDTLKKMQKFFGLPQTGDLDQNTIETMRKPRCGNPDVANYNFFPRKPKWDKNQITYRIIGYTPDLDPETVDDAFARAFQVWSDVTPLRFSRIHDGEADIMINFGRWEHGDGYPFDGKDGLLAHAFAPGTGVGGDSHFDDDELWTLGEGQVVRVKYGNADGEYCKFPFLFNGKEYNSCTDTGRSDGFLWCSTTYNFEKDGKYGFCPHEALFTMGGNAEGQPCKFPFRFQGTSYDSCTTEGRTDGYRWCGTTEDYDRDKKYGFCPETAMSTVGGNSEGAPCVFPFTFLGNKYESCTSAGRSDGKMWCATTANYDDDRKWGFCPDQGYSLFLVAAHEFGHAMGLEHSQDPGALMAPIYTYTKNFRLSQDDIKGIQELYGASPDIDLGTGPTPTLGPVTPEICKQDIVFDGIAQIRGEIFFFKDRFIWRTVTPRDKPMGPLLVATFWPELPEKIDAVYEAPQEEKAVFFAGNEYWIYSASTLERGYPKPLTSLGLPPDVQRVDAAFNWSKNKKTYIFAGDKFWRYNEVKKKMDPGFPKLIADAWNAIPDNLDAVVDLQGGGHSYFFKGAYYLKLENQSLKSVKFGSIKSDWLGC
Sequence of UniProt O60656 (whole entry, looked up): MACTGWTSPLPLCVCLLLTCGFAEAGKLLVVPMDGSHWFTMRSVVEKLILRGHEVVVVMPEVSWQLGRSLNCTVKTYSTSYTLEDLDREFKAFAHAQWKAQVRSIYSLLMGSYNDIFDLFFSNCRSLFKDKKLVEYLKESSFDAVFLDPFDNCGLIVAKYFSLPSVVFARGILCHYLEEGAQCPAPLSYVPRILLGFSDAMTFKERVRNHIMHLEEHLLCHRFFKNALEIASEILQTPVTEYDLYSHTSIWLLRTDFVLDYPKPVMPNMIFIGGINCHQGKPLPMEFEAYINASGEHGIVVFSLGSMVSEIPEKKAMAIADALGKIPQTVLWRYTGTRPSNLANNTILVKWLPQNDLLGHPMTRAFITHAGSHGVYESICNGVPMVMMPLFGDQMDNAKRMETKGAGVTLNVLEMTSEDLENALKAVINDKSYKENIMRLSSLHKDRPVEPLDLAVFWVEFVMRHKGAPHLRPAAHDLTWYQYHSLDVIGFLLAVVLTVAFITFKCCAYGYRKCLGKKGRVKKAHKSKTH

For `B1 (LYS1 C205S/D319A)`, the Km was 210 µM (O=C(O)CCC(=O)C(=O)O; pH 7.2, 25 °C, together with: NADH and Lys).
For `B2 (msrA U16C)`, the Km was 4000 µM (CN(C)c1ccc(N=Nc2ccc(S(=O)(=O)N[C@@H](CC[S@+](C)[O-])C(=O)O)cc2)cc1; pH 7.5, 37 °C, 50 mM NaCl, Km above tested range, together with: 20 mM DTT reductant).
For `B3 (FMO3 E158K)`, the Km was 1600 µM (CN1CCC[C@H]1c1cccnc1; HEK293 microsomes; 37 °C, not purified, together with: NADPH regenerating system).
`PUT2 (Saccharomyces cerevisiae, UniProt P07275)` has a Km of 104 µM (O=C(O)[C@@H]1CCC=N1; pH 7.5, 20 °C).
For `UGT1A9 (Homo sapiens, UniProt O60656)`, the Vmax was 0.00231 µmol/min/mg (COc1ccc(O)cc1; pH 7.4, 37 °C).
`B4 (TcC)` has a Km of 14 µM (Nc1nc2nc[nH]c2c(=O)[nH]1; pH 8.3, 37 °C, apparent, together with: PRPP 1 mM, MgCl2 12 mM).
With `B5 (enzyme A178R/D177A/M179S/P184R)` the Km was 18 µM (NC(=O)C1=CN([C@@H]2O[C@H](COP(=O)(O)OP(=O)(O)OC[C@H]3O[C@@H](n4cnc5c(N)ncnc54)[C@H](O)[C@@H]3O)[C@@H](O)[C@H]2O)C=CC1; pH 7.5, 37 °C).
`GDA (Homo sapiens, UniProt Q9Y2T3)` gave a Km of 8 µM (Nc1nc2csnc2c(=O)[nH]1).
With `MMP2 (Homo sapiens, UniProt P08253)` the Km was 216 µM (CC(=O)NCC(=O)N1CCC[C@H]1C(=O)N[C@@H](CC(C)C)C(=O)NCC(=O)N[C@@H](CC(C)C)C(=O)N[C@@H](CO)C(=O)N[C@@H](CC(C)C)C(=O)NCC(=O)N[C@@H](CCCCN)C(N)=O).
For `pgmB T16P (Lactococcus lactis) (sequence not shown)`, the Km was 10 µM (O=P(O)(O)OC[C@H]1O[C@@H](OP(=O)(O)O)[C@H](O)[C@@H](O)[C@@H]1O; pH 7, 25 °C).
The Km of `RALBP1 (Homo sapiens, UniProt Q15311)` is reported as 3500 µM (Nc1ncnc2c1ncn2[C@@H]1O[C@H](COP(=O)(O)OP(=O)(O)OP(=O)(O)O)[C@@H](O)[C@H]1O; pH 7.4, 37 °C, together with: 14C-DOX 3.6 µM).
The Km of `B6 (enzyme)` is reported as 11500 µM (O=C(O)C[C@H](O)C(=O)O).
With `B7 (oxdC)` the Km was 18000 µM (O=C(O)C(=O)O; pH 4.2, 25 °C).

Repeated from above:
For `B3 (FMO3 E158K)`, the Km was 1600 µM (CN1CCC[C@H]1c1cccnc1; HEK293 microsomes; 37 °C, not purified, together with: NADPH regenerating system).
For `B1 (LYS1 C205S/D319A)`, the Km was 210 µM (O=C(O)CCC(=O)C(=O)O; pH 7.2, 25 °C, together with: NADH and Lys).
